Experimental data of several laboratories.
A part holds a random share of what one study measured. Substitutions count along the parent as printed.

Block 1
Target: Histone acetyltransferase KAT6A, winged helix 2, GST fusion (KAT6A, Homo sapiens, UniProt Q92794, residues 85-181)
Method: protein binding microarray
Molecule type: double-stranded DNA, one strand shown
Matrix: in vitro
Tested at: not given
Setting: 8-mer, flanks averaged, mean of 2 arrays, mostly near background
Reference: not given
Reading: higher = stronger binding
Construct (chain): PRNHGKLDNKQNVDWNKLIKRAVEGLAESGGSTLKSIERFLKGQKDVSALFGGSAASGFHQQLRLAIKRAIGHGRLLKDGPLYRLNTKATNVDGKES
For `GACGACGC`, the E-score was -0.0557.
The E-score of `CATCCTTC` is reported as -0.26.
`CCATTGCA` has an E-score of -0.00979.
`CACTTATA` gave an E-score of -0.173.

Block 2
Target: CCNA2, cyclin fold, Cln2 fusion (human)
Method: yeast growth competition, sequencing
Matrix: yeast
Setting: strong parent motif
Reference: not given
Reading: higher = stronger binding
Starting sequence: ORC1 docking peptide (human); PRARKRLELGNLG; partner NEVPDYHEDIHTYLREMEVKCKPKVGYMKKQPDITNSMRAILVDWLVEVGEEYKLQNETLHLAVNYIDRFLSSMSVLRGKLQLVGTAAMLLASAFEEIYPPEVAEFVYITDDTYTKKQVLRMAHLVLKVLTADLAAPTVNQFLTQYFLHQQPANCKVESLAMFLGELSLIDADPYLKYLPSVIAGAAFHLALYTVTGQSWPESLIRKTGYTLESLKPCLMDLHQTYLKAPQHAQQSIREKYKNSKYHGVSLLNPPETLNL
`A3M`: “normalised enrichment score” 3.64.
Under “normalised enrichment score”, `R6H` is recorded as 2.19.
For `G10A`, “normalised enrichment score” read 4.36.
Under “normalised enrichment score”, `E8Q` is recorded as 4.84.

Block 3
Target: Fragile X messenger ribonucleoprotein 1, C-terminal low-complexity region (Fmr1, Mus musculus, UniProt P35922)
Method: RNA Bind-n-Seq
Molecule type: RNA
Matrix: in vitro
Tested at: 200 nM
Setting: whole 134-nt RNA, ends assumed
Added: 150 mM KCl
Reference: input library
Reading: higher = stronger binding
All sequences stand within: GGGAGUUCUACAGUCCGACGAUC … UGGAAUUCUCGGGUGUCAAGG
`CUGUGCUACACAUCGUAUGUACCGAAUCAAACCCCCCCAAACCCCCCCAAACCCCCCCAAAAAAGUAUUAUGUUACGCCGUUCGGAUCUG` gave a log2 enrichment of -0.0959.
With `ACCAUGCAGGUGGGCAUCUUUGGGAAGUGGGGCAAGGGGGGGAUAGGGAGGGGGGUAACACUUUGGGAACAGGUGGUCAAAGGUCGUUUC` the log2 enrichment was 0.285.
For `UCCUGUGCUACACAUCGUAUGUACCGAAUCAAACCCCCCCAAAUUUUUAAAUUUUUAAAAAAGUAUUAUGUUACGCCGUUCGGAUCUGCA`, the log2 enrichment was 0.402.
`UCCUGUGCUACACAUCGUAUGUACCGAAUCGGAAAAAAGGGAAAAAAGGAAAAAAGGGGAAAGUAUUAUGUUACGCCGUUCGGAUCUGCA` gave a log2 enrichment of -0.667.
`CACAGACAACACGCACCCACACAGACACAGAGGGAAGGGGUUGGGAUGGGGACAGGGUGCACACCAGGGCGGGGUAGGACCCCAGCCCCU` has a log2 enrichment of 1.31.

Mixed results
For `PhoQ, residues 284 288 289 292 302 303 AGHLVA`, the fold induction was 0.968 (PhoP, residues 12 14 15 18 19 SPWRL (Escherichia coli, UniProt P23836); Sort-seq, measured: YFP reporter; E. coli; PhoQ-PhoP variant library, added: 10 µM Mg2+; reference: high Mg2+ state, higher = stronger signaling).

A few entries again (block 3):
`CACAGACAACACGCACCCACACAGACACAGAGGGAAGGGGUUGGGAUGGGGACAGGGUGCACACCAGGGCGGGGUAGGACCCCAGCCCCU` has a log2 enrichment of 1.31.
